Results gathered from unrelated publications.
“And” joins repeats or separate records; there may be more than shown.

Molecule = CCOc1nc(N)ncc1-c1cn([C@@H]2O[C@](F)(CO)[C@@H](O)[C@H]2O)cn1; target or system = Zaire ebolavirus; test = viral replication, reporter virus; system = Huh-7; conditions = 72 h; measurement = IC50; value = > 100 µM
Molecule = KLPQLCTEV; target or system = HN12 (HLA-A2+ HPV+); test = 111In release; system = peptide; conditions = concentration not given, 16 h, E:T 25:1 IVS 5, added: peptide-generated T-cell line; measurement = specific lysis; value = 49.4%
Molecule = CC(C)C(=O)OC[C@@]1(F)O[C@@H](n2cnc(-c3cnc(N)nc3)c2)[C@H](OC(=O)C(C)C)[C@@H]1OC(=O)C(C)C; target or system = Zaire ebolavirus; test = viral replication, reporter virus; system = Huh-7; conditions = 72 h; measurement = IC50; value = 56.7 µM
Molecule = CN(C)c1ccc2nc3ccc(N(C)C)cc3[s+]c2c1; target or system = VSVΔG pseudotyped with MERS-CoV S; test = pseudovirus infection; conditions = 10 µM; measurement = inhibition; value = 75%
Molecule = ILKEPVHGAY; target or system = KIR2DL2− 2DS2− 2DL3+ NK cells; test = NK cell response; system = peptide, human; conditions = concentration not given, added: peptide-pulsed RMA-S cells; how to read = baseline: no peptide; measurement = relative reactivity; value = 110% and 107% and 97.8%
Molecule = COc1cc2ncnc(Nc3cccc(Cl)c3)c2cc1OC; target or system = Monkeypox virus; test = viral replication; system = replication-deficient; conditions = 10 µM; measurement = inhibition; value = 98% and 99.9% and 99.8%
Molecule = ILKEPVHGVY; target or system = KIR2DL2+ 2DS2+ 2DL3− NK cells; test = NK cell response; system = peptide, human; conditions = concentration not given, added: peptide-pulsed RMA-S cells; how to read = baseline: no peptide; measurement = relative reactivity; value = 65.8% and 70.7% and 70.6%
Molecule = KISEYRHYV; target or system = HN12 (HLA-A2+ HPV+); test = 111In release; system = peptide; conditions = concentration not given, 16 h, E:T 25:1 IVS 5, added: peptide-generated T-cell line; measurement = specific lysis; value = 38.4%
